Measurements of several laboratories.
Compare with care: the assays were run in different laboratories. ± marks the error that the study gave.

With [Ru+2].c1ccc(-c2ccc3c(n2)c2ncccc2c2nc4cc5ccccc5cc4nc32)nc1.c1ccc(-c2ccc3c(n2)c2ncccc2c2nc4cc5ccccc5cc4nc32)nc1 the EC50 was 2.2 ± 0.4 µM (M1 murine macrophages; cell viability, MTT; 1 h, blue light 56 J/cm2).
With Cc1ccc(CNC(=O)[C@H](CC(C)C)NC(=O)[C@H](CCc2ccccc2)NC(=O)c2cnc(C)cn2)cc1 the EC50 was 35 µM (HFF; cell viability; 72 h).
Cn1cncn1.[Ru+2].c1cc(-c2ccc3ccccc3n2)nc(-c2ccc3ccccc3n2)c1.c1ccc2cc3nc4c5cccnc5c5ncccc5c4nc3cc2c1 gave an EC50 of 2.6 ± 0.9 µM (L929; cell viability, MTT; 4 h, green light, 10 min).
Cc1ccc2c(n1)c1nc(C)ccc1c1nc3cc4ccccc4cc3nc21.[Ru+2].c1ccc(-c2cccc(-c3ccccn3)n2)nc1.c1ccncc1 gave an EC50 of 0.23 ± 0.14 µM (M1 murine macrophages; cell viability, MTT; 1 h, blue light 56 J/cm2).
For CSCC[C@H](NC(=O)[C@H](CO)NC(=O)[C@@H](N)CO)C(=O)N[C@@H](CCCCN)C(=O)N[C@@H](CC(C)C)C(=O)N[C@@H](CO)C(=O)N[C@@H](Cc1ccccc1)C(=O)N[C@@H](CCCNC(=N)N)C(=O)N[C@@H](C)C(=O)N[C@@H](CCCNC(=N)N)C(=O)N[C@@H](C)C(=O)N[C@@H](Cc1ccc(O)cc1)C(=O)NCC(=O)N[C@@H](Cc1ccccc1)C(=O)N[C@@H](CCCNC(=N)N)C(=O)NCC(=O)N1CCC[C@H]1C(=O)NCC(=O)N1CCC[C@H]1C(=O)N[C@@H](CCC(N)=O)C(=O)N[C@@H](CC(C)C)C(=O)O, the EC50 was ~0.0434 µM (primary hepatocytes).
With COC(=O)[C@]1(C)C=C(C(=O)Nc2cccc(C(=O)Nc3ccc(Nc4nccc(-c5cccnc5)n4)c(C)c3)c2)C(=O)CC1 the EC50 was 0.32 ± 0.12 µM (SH-SY5Y MKK7 inducible; c-Jun Ser73 phosphorylation, inhibitor, western blot, refers to: phospho-c-Jun Ser73; 6 h, together with: doxycycline).
With Cc1ccc(CNC(=O)[C@H](CCCCNC(=O)OCc2ccccc2)NC(=O)[C@H](CC2CCCCC2)NC(=O)Cc2cccnc2)cc1 the EC50 was > 100 µM (HFF; cell viability; 72 h).
For CCCCCCCCCCCCCCCC(=O)N[C@@H](CCC(=O)NCCCC[C@H](NC(=O)[C@H](CC(=O)O)NC(=O)[C@H](CO)NC(=O)[C@@H](NC(=O)[C@H](Cc1ccccc1)NC(=O)[C@@H](NC(=O)CNC(=O)[C@H](CCC(N)=O)NC(=O)[C@H](CO)NC(=O)[C@@H](N)Cc1c[nH]cn1)[C@@H](C)O)[C@@H](C)O)C(=O)N[C@@H](CO)C(=O)N[C@@H](CCC(=O)O)C(=O)N[C@@H](Cc1ccc(O)cc1)C(=O)N[C@@H](CC(C)C)C(=O)N[C@@H](CC(=O)O)C(=O)N[C@@H](CO)C(=O)N[C@@H](CCC(=O)O)C(=O)N[C@@H](CCCNC(=N)N)C(=O)N[C@@H](C)C(=O)N[C@@H](CCCNC(=N)N)C(=O)N[C@@H](CC(=O)O)C(=O)N[C@@H](Cc1ccccc1)C(=O)N[C@H](C(=O)N[C@@H](C)C(=O)N[C@@H](Cc1c[nH]c2ccccc12)C(=O)N[C@@H](CC(C)C)C(=O)N[C@@H](CCC(=O)O)C(=O)N[C@@H](C)C(=O)NCC(=O)NCC(=O)O)C(C)C)C(=O)O, the EC50 was 0.00105 ± 0.000316 µM (human EndoC-βH1 β-cells; cAMP accumulation, agonist; together with: 0.1% BSA).
The EC50 of Cc1cc2cc(O)c(O)cc2c(O)c1-c1c(C)cc2cc(O)c(O)cc2c1O is reported as 24.7 µM (RS11846; apoptosis, annexin V/PI flow cytometry; 1-2 d).
The EC50 of CN(C)CC#Cc1ccc(OCCCc2sc(N3CCc4cccc(C(=O)Nc5nc6ccccc6s5)c4C3)nc2C(=O)O)c(F)c1 is reported as > 5 µM (RS4-11; cell growth or viability, ATP luminescence; 48 h).
Cc1ccc(CNC(=O)[C@@H](NC(=O)[C@H](CCc2ccccc2)NC(=O)[C@H](CCc2ccccc2)NCc2cnccn2)C(C)C)cc1 gave an EC50 of > 50 µM (HFF; cell viability; 72 h).
C=CC(=O)N1CCC(c2cc(C(=O)O)n(C)n2)CC1 gave an EC50 of 0.26 µM (AP1-luc HEK293; AP1 reporter gene, activator, luciferase; together with: FBS stimulation).
For Cc1ccc(CC(=O)c2c(O)c(O)cc3c(O)c(-c4c(C)cc5c(C(=O)Cc6ccc(C)cc6)c(O)c(O)cc5c4O)c(C)cc23)cc1, the EC50 was 2.2 µM (RS11846; ATP-lite viability; 72 h).
Cc1ccc(CNC(=O)[C@@H]2Cc3cccc(c3)Oc3cccc(c3)C[C@H](N)C(=O)N[C@@H](CCc3ccccc3)C(=O)N2)cc1 has an EC50 of > 50 µM (HFF; cell viability; 72 h).
The EC50 of NS(=O)(=O)NCC(O)c1ccccc1F (stereo not drawn) is reported as 0.003 µM (rat hippocampal neurons; neuroprotection; medium without antioxidants, together with: glutamate 30 µM for 5 min).
FC(F)(F)c1ccnc(-c2cc(C(F)(F)F)ccn2)c1.FC(F)(F)c1ccnc(-c2cc(C(F)(F)F)ccn2)c1.[Cl-].[Cl-].[Ru+2].c1csc(-c2ccc(-c3ccc(-c4ccc(-c5nc6c7cccnc7c7ncccc7c6[nH]5)s4)s3)s2)c1 has an EC50 of 0.2 to 0.9 µM (SK-MEL-28; cell viability, resazurin; green light, hypoxia 1% O2).
NS(=O)(=O)NCC(F)(F)c1ccccc1F has an EC50 of 0.00013 µM (rat hippocampal neurons; neuroprotection, propidium iodide; together with: glutamate 30 µM, 5 min).
For Cc1ccc(CNC(=O)[C@H](CCc2ccccc2)NC(=O)[C@H](CCc2ccccc2)NC(=O)[C@@H](N)Cc2ccncc2)cc1, the EC50 was 68 µM (HFF; cell viability; 72 h).
